Measurements gathered from unrelated publications.
Several values in a cell are separate wells, animals, samples, runs or records. ± gives the spread as reported.

For `CNS(=O)(=O)Nc1nccc(Cc2c(C)c3ccc(Oc4ncccc4F)cc3oc2=O)c1F`, the IC50 was greater than 1 µM (DLD-1; cell viability; 7 days).
For `Cn1ncc2cc(-c3cncc(Cl)c3N3CCC4(CCNC4=O)CC3)ccc21`, “log2 fold change” read 1.4 (LS174T; gene expression, microarray, item: FAM65C mRNA; concentration not given, 24 h; relative to: untreated cells).
`[Cl-].[Cl-].[Ru+2].c1cc(-c2ccc3cccnc3n2)nc(-c2ccc3cccnc3n2)c1.c1ccc2cc3nc4c5cccnc5c5ncccc5c4nc3cc2c1` has an EC50 of 14 µM (A-375; resazurin; with: light 523 nm, 20 mW, 100 J/cm2).
`CCN(CC)CC(=O)Nc1cccc(-n2cc(-c3ccc4ccc(-c5cn(-c6cccc(NC(=O)CN(CC)CC)c6)nn5)cc4c3)nn2)c1` gave a fold regulation of 1.06 (RCC4; PCR angiogenesis array, item: PLG; 5 x IC50, 2 h, normoxia; relative to: untreated).
`O=C(N/N=C/c1cc[n+](CC2CC2)c2ccccc12)N/N=C/c1cc[n+](CC2CC2)c2ccccc12` has a ΔTm of 3.6 ± 0.2 °C (MYC parallel G4 DNA; FRET melting; 1 µM, DNA 0.2 µM, with: duplex DNA competitor 10 µM).
For `CC(C)(C)n1cc(CN(Cc2cn(CC(=O)O)nn2)Cc2cn(C(C)(C)C)nn2)nn1`, “amount of labelled product” read 0.36 pg/µg protein and 0.34 pg/µg protein and 0.31 pg/µg protein (OVCAR-5, HPG-incorporated; live-cell CuAAC, LC-ESI-MS/MS; cytosolic proteins; concentration not given, 10 min, adherent cells, no pre-treatment).
For `C[n+]1cccc2cc(/C=N/NC(=O)c3cncc(C(=O)N/N=C/c4ccc5c(ccc[n+]5C)c4)n3)ccc21`, the ΔTm was 8.4 ± 0.5 °C (MYC parallel G4 DNA; FRET melting; 1 µM, DNA 0.2 µM, with: duplex DNA competitor 10 µM).
For `CC(C)c1ccc(N(C)c2ccc3c(c2)OCC[C@H]3CNc2cnccc2C(=O)O)cc1`, the IC50 was 0.00253 µM (DLD-1; cell viability, CellTiter-Glo; 7 days).
`Cn1c(=O)n(C2CCC(=O)NC2=O)c2ccc(C3CCN(CC(=O)Nc4cccc(CS(=O)(=O)N5CC[C@H](Nc6cccc(-c7sc(C(=O)O)c(OCC(=O)O)c7Cl)c6)CC5(C)C)c4)CC3)cc21` (stereo partly drawn) has a pSTAT1 level of 84.4% and 86.9% and 88.2% and 91.9% and 65.2% and 80.5% (B16-F10; HTRF, item: phospho-STAT1 Tyr701; 10 µM, with: IFN-γ; relative to: min-max normalised).
For `CN(C)c1ccc(-n2cc(COC(=O)[C@]3(C)C=C(C(=O)OC(C)(C)C)C(=O)CC3)nn2)cc1`, the luminescence was 1070 a.u. (AP-1 reporter HEK293; AP-1 reporter gene, luciferase reporter; 10 µM, 6 h, with: PMA 6 ng/mL; higher = more transcription).
The inhibition of `Cc1cc(C)nc(SCC(=O)Nc2ncc(Cc3cccc(OCc4cn(Cc5ccc(C#N)cc5)nn4)c3)s2)n1` is reported as 33.8 ± 2.1% (PC-3M-luc; cell viability, MTS; 10 µM).
The EC50 of `Oc1ccnc(-c2cc(O)ccn2)c1.[Cl-].[Cl-].[Ru+2].c1ccc(-c2ccnc3c2ccc2c(-c4ccccc4)ccnc23)cc1.c1ccc(-c2ccnc3c2ccc2c(-c4ccccc4)ccnc23)cc1` is reported as 38 µM (MCF-10A; CCK-8 viability; dark).
`CC(C)C[C@@H]1NC(=O)[C@H](CC(C)C)NC(=O)[C@H](Cc2c[nH]c3ccccc23)NC(=O)[C@H](CO)NC(=O)[C@H](Cc2c[nH]c3ccccc23)NC(=O)[C@@H]2CCCN2C(=O)[C@H](CC(C)C)NC(=O)[C@H](Cc2c[nH]cn2)NC(=O)[C@@H]2CCCN2C(=O)[C@H](CC(N)=O)NC(=O)[C@H](C)NC(=O)[C@H](Cc2ccc(O)cc2)NC(=O)[C@H](CS)NC(=O)[C@H](CCCCNC(=O)CN2CCN(CC(=O)O)CCN(CC(=O)O)CCN(CC(=O)O)CC2)NC1=O` [lutetium-177 labelled] has a live cells of 68% (4T1; flow cytometry; 0.4 Bq/cell, 48 h).
`Cc1cc(Cl)cc(-c2ccnc3cc(CN4C(=O)C5C(C4=O)C5(C)C)sc23)c1C[C@@H]1CNCCO1` (stereo partly drawn) — result for “S phase cells”: 17.6% (CHP-212 parental; PI flow cytometry; 0.3 µM, 24 h).
`O=C(NCCCSc1ccc2c(/C=C/c3ccccn3)n[nH]c2c1)c1ccc(Cl)c(C(F)(F)F)c1` gave a GI50 of 0.35 µM (Ba/F3 TEL-VEGFR1; cell growth, CCK-8).
For `O=C1CC[C@H](N2Cc3cc(-c4ccn5ncc(Cl)c5n4)ccc3C2=O)C(=O)N1`, “log2 fold change” read 0.0271 (MOLM-13; protein level, TMT proteomics, item: A2M; 1 µM, 6 h; relative to: DMSO).
`CC(C)(C)c1cc(-c2ccc3cc4ccccc4nc3n2)nc(-c2ccc3cc4ccccc4nc3n2)c1.Cc1ccncc1.[Cl-].[Cl-].[Ru+2].c1ccc2cc3nc4c5cccnc5c5ncccc5c4nc3cc2c1` gave an EC50 of 12.1 µM (A-375; resazurin; with: light 523 nm, 20 mW, 100 J/cm2).
With `CO[C@@H]1[C@@H](OC(N)=O)[C@@H](O)[C@H](Oc2ccc3c(O)c(NC(=O)c4ccc(O)c(CC=C(C)C)c4)c(=O)oc3c2C)OC1(C)C` the colony count was 17 (HCT-116 parental; 100 µM, replicate 2).
For `COC1CN([C@H]2CC[C@H]([C@@]3(C)Oc4c(Cl)cc(C(=O)NCc5c(SC)cc(C)[nH]c5=O)c(C)c4O3)CC2)C1`, “log2 fold change” read 2.04 (RNA-seq, item: ARHGEF17; human, whole blood; dose not given, 24 h; relative to: pretreatment baseline).
`CC(=O)OC[C@H]1O[C@@H](n2cc(CSc3nc4ccccc4n3Cc3cn([C@@H]4O[C@H](COC(C)=O)[C@@H](OC(C)=O)C(OC(C)=O)[C@H]4OC(C)=O)nn3)nn2)[C@H](OC(C)=O)C(OC(C)=O)[C@@H]1OC(C)=O` (stereo in doubt) has a cytotoxicity of 64.5% (Caco-2; MTT; 7.81 ppm).
`C=CC(=O)N1C[C@H](C)N(c2nc(OC[C@@]34CCCN3C[C@H](F)C4)nc3c(F)c(-c4ccc(F)c5sc(N)c(C#N)c45)c(C(F)(F)F)cc23)C[C@H]1C` has a kinact of 0.00047 s⁻¹ (NCI-H358 (KRAS G12C heterozygous); ERK phosphorylation, covalent inhibitor, HTRF, item: pERK).
With `CCN(C(=O)c1cc(F)ccc1Oc1nncnc1N1CCC2(C1)CN([C@H](CCCN(C)CCOC)C(C)C)C2)C(C)C` the GI50 was greater than 10 µM (THP-1; cell growth or viability; 72 h).
`CCCCCCCCCCCC(=O)N[C@H](CO)C[C@@H](O)c1ccccc1` has a ceramide level of 20200 pmol/sample and 23100 pmol/sample and 22000 pmol/sample (HeLa; CERT activity, HPLC-MS/MS lipidomics, item: ceramide 16; 1 µM, 24 h, not cell-number normalised).
Under “log2 fold change”, `Cc1ncsc1-c1ccc(C(C)NC(=O)C2CC(O)CN2C(=O)C(NC(=O)CCCCCCCCCCN2CCCC(Nc3ncc(Cl)c(Nc4ccccc4S(=O)(=O)C(C)C)n3)C2)C(C)(C)C)cc1` (stereo not drawn) is recorded as -1.22 (22Rv1; RNA-seq, item: RNF214 mRNA; concentration not given; relative to: DMSO).
The metabolite level of `COC(=O)c1cc(NC2=NC(=O)C(=Cc3ccc(C)cc3)S2)ccc1OC(C)=O` is reported as 0.56 fold change (MCF7; GC-MS, item: Cholesterol; 1 µM; relative to: DMSO).
`CN1CCCNC(=O)c2cccc(c2)C(=O)NCCCN(C)CCCNc2cccc3c2C(=O)c2cccc(c2C3=O)NCCC1` — result for “log2 fold change”: -2.06 (SAS; RNA-Seq, item: PNN mRNA; 5 µM, 6 h; relative to: untreated cells).
For `NC(=O)c1ccc(-c2ccccc2Cl)c2c3c([nH]c12)CC[C@@H](N)C3`, the IC50 was 0.0169 µM (Ramos; cell growth or viability).
`COc1ccccc1-c1ccncc1C(=O)Nc1nnc(OCc2ccc(Cl)cc2)s1` has a colony survival of 54.1% (MDA-MB-436 (BRCA1 mutant); colony formation; 0.75 µM; relative to: untreated control).
The phototoxicity index of `CC(C)(C)c1cc(-c2ccc3cccnc3n2)nc(-c2ccc3cccnc3n2)c1.COc1ccncc1.[Cl-].[Cl-].[Ru+2].c1ccc2cc3nc4c5cccnc5c5ncccc5c4nc3cc2c1` is reported as 45 (A-375; resazurin; with: light 523 nm, 100 J/cm2; relative to: dark EC50 over light EC50).
`COc1cc(N2CCN(C(=O)CCOCCNC(=O)[C@@H]3CCCN3)CC2)ccc1Nc1ncc(Cl)c(Nc2ccccc2P(C)(C)=O)n1` — result for “early apoptotic cells”: 1.7% (NCI-H3122; annexin V/PI flow cytometry; 500 nM, 24 h).

Excerpt of the above:
For `O=C1CC[C@H](N2Cc3cc(-c4ccn5ncc(Cl)c5n4)ccc3C2=O)C(=O)N1`, “log2 fold change” read 0.0271 (MOLM-13; protein level, TMT proteomics, item: A2M; 1 µM, 6 h; relative to: DMSO).
`CC(C)(C)c1cc(-c2ccc3cc4ccccc4nc3n2)nc(-c2ccc3cc4ccccc4nc3n2)c1.Cc1ccncc1.[Cl-].[Cl-].[Ru+2].c1ccc2cc3nc4c5cccnc5c5ncccc5c4nc3cc2c1` gave an EC50 of 12.1 µM (A-375; resazurin; with: light 523 nm, 20 mW, 100 J/cm2).
